Measured values from different studies.
Every numbered part comes from another study and shows a few of its results, in no order. Changes are numbered by the printed parent chain.

Set 1
Target: CCND2, cyclin fold, Cln2 fusion (human)
Technique: yeast growth competition, sequencing
Sample: yeast
Notes: weak parent motif
Relative to: not given
Reading: higher = stronger binding
Starting sequence: viral docking peptide; KGVKRKLFAEDSS
Under “normalised enrichment score”, `KGVKRKLHAEDSS [F8H]` is recorded as 0.253.
`KGVYRKLFAEDSS [K4Y]`: “normalised enrichment score” -0.523.
`KGVKRKGFAEDSS [L7G]` — result for “normalised enrichment score”: 0.321.
For `AGVKRKLFAEDSS [K1A]`, “normalised enrichment score” read 0.353.

Set 2
Target: vanadate, free oxyanion
Technique: microfluidic competitive inhibition
Sample: in vitro, cell-free expressed
Concentration: not given
Notes: derived from inhibition constants, unchanged parent 676 nM
Reading: lower = stronger binding
Starting sequence: PafA, mature enzyme, eGFP fusion (Elizabethkingia meningoseptica, UniProt Q9KJX5); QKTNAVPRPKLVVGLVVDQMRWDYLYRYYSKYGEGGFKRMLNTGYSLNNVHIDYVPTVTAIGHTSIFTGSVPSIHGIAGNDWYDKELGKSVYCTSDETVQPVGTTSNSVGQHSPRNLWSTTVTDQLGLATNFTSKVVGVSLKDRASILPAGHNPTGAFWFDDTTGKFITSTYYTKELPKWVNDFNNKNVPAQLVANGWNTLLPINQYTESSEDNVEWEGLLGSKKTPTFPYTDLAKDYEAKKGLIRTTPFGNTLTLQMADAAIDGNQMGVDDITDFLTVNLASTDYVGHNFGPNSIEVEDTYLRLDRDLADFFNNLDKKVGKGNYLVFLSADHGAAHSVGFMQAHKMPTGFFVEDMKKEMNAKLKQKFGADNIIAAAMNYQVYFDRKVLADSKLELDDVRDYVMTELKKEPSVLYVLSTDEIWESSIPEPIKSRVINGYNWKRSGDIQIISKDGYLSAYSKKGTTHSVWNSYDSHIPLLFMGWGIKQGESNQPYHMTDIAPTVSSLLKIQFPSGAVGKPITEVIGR
`Y173V`: “oxyanion analog dissociation constant” 798 nM.
`D308V`: “oxyanion analog dissociation constant” 740 nM.
For `N49G`, “oxyanion analog dissociation constant” read 585 nM.
`Y207G`: “oxyanion analog dissociation constant” 660 nM.
For `T419V`, “oxyanion analog dissociation constant” read 713 nM.
`G251V` — result for “oxyanion analog dissociation constant”: 814 nM.
For `W217G`, “oxyanion analog dissociation constant” read 882 nM.
`A195G`: “oxyanion analog dissociation constant” 912 nM.
For `E522G`, “oxyanion analog dissociation constant” read 589 nM.
`R526G` — result for “oxyanion analog dissociation constant”: 686 nM.
`Y494V` — result for “oxyanion analog dissociation constant”: 663 nM.
`G33A` — result for “oxyanion analog dissociation constant”: 550 nM.
`V17G`: “oxyanion analog dissociation constant” 737 nM.
`P512G` — result for “oxyanion analog dissociation constant”: 522 nM.
Under “oxyanion analog dissociation constant”, `V6G` is recorded as 509 nM.
For `G323A`, “oxyanion analog dissociation constant” read 1.26 µM.
Under “oxyanion analog dissociation constant”, `G321A` is recorded as 597 nM.
For `N372G`, “oxyanion analog dissociation constant” read 659 nM.
`S444G`: “oxyanion analog dissociation constant” 517 nM.
For `A150V`, “oxyanion analog dissociation constant” read 624 nM.
For `E176G`, “oxyanion analog dissociation constant” read 713 nM.
For `Y172V`, “oxyanion analog dissociation constant” read 5.37 µM.
`S433V` — result for “oxyanion analog dissociation constant”: 568 nM.
`K408V`: “oxyanion analog dissociation constant” 647 nM.
Under “oxyanion analog dissociation constant”, `H51G` is recorded as 692 nM.

Set 3
Target: Interferon regulatory factor 3, full length, phosphomimetic (IRF3, Homo sapiens, UniProt Q14653, residues 1-427, S386D/S396D/S398D/S402D/T404D/S405D)
Technique: protein-binding microarray
Molecule type: double-stranded DNA, one strand shown
Sample: in vitro
Concentration: 2540 nM top
Notes: 60-bp whole probe
Together with: salmon DNA 0.4 mg/ml
Relative to: random background probes
Reading: higher = stronger binding
Constant ends, left off below: GCCTAGCAC … GTGCTAGGTCTTGATTCGCTTGACGCTGCTG
Target sequence (chain): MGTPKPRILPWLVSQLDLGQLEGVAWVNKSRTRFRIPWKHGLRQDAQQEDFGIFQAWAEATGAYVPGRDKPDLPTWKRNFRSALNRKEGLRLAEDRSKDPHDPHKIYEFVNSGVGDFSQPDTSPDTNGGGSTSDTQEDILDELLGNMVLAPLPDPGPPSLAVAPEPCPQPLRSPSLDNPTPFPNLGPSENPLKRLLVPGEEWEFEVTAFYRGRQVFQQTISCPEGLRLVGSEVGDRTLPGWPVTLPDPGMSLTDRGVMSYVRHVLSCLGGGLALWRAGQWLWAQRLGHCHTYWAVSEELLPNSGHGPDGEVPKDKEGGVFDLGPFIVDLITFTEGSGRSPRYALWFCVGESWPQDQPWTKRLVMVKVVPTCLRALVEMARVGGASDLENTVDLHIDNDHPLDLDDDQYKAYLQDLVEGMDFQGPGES
`GACGAAGTGAGACTGGAGAC`: “fitted relative affinity” -0.506 z-score.
Under “fitted relative affinity”, `TCAGTTTTCATTATTGTACT` is recorded as 3.72 z-score.
`TTAGGTGTCCTACTGCTTTA` — result for “fitted relative affinity”: 1.07 z-score.
`CTTTGCTCATTTTTCAGGGA`: “fitted relative affinity” 1.66 z-score.
Under “fitted relative affinity”, `TTAAGACTGGGTATCGGTTA` is recorded as 0.568 z-score.
Under “fitted relative affinity”, `TTAGGTTTAGGTCTCGGTTA` is recorded as 0.347 z-score.
For `GACGGTCTCCGTATCCTGAC`, “fitted relative affinity” read 1.84 z-score.
`GACGGACCGCTTTTCCTGAC`: “fitted relative affinity” 0.25 z-score.

Set 4
Target: Prothrombin, mature alpha-thrombin (F2, Homo sapiens, UniProt P00734)
Technique: aptamer microarray, sandwich
Molecule type: DNA with 2'F-ANA
Sample: in vitro
Concentration: 200 nM
Notes: whole 15-mer aptamer, many near background
Together with: Cy3 exosite-II aptamer, 400 nM
Reading: higher = stronger binding
Sequence: GGTTGGTGTGGTTGG
For `2'F-ANA at 2 3 5 6 9 11 14`, “mean fluorescence intensity” read 49 a.u.
`2'F-ANA at 2 4 5 6 7 8 9 10 13 14 15` — result for “mean fluorescence intensity”: 53.9 a.u.
`2'F-ANA at 4 6 7 8 13 14 15`: “mean fluorescence intensity” 93.6 a.u.
For `2'F-ANA at 1 4 5 6 8 9 10 14 15`, “mean fluorescence intensity” read 47.4 a.u.
`2'F-ANA at 5 7 9 11 13` — result for “mean fluorescence intensity”: 54.1 a.u.
`2'F-ANA at 3 4 5 9 10 12 13 14`: “mean fluorescence intensity” 50.1 a.u.
For `2'F-ANA at 3 4 7 8 9 10 13 14`, “mean fluorescence intensity” read 272 a.u.
For `2'F-ANA at 4 5 6 7 9 10 11 13 14 15`, “mean fluorescence intensity” read 48.6 a.u.

Set 5
Target: POU, POU domain (Salpingoeca helianthica)
Technique: Spec-seq
Molecule type: double-stranded DNA, one strand shown
Sample: in vitro
Concentration: not given
Notes: whole probe, mean of replicates
Relative to: not given
Reading: lower = stronger binding
Constant ends, left off below: GAGTCGTCTCGTCAGCAC … CCGTAGAGCACTCAGGTC
Target sequence (chain): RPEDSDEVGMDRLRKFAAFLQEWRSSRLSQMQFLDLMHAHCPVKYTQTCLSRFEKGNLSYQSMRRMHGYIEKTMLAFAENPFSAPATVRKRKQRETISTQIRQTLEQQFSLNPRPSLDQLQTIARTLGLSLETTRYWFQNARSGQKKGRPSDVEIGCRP
`AGGTTAAT` — result for “relative binding energy”: 0.0773 ln ratio.
`GATCTAAT` — result for “relative binding energy”: 0.746 ln ratio.
For `ATGCCCAA`, “relative binding energy” read 1.27 ln ratio.
`ATCACTAT` — result for “relative binding energy”: 0.889 ln ratio.
For `ATGCTCGA`, “relative binding energy” read 1.33 ln ratio.
Under “relative binding energy”, `AGACTAAT` is recorded as 0.77 ln ratio.
`ATCATGAT` — result for “relative binding energy”: 1.05 ln ratio.
`ATGCGTTC` — result for “relative binding energy”: 1.07 ln ratio.

Other studies, line by line
With `C[C@@H]1C[C@@H]([C@H](O)CC2CC(=O)NC(=O)C2)C(=O)[C@@H](C)C1` the viability was 53% (Huh-7; 10 µM, 24 h).

Some of these lines once more (set 2):
For `A150V`, “oxyanion analog dissociation constant” read 624 nM.
`G251V` — result for “oxyanion analog dissociation constant”: 814 nM.
For `T419V`, “oxyanion analog dissociation constant” read 713 nM.
`S433V` — result for “oxyanion analog dissociation constant”: 568 nM.
